Measured values from different studies.
Each line is one published result; not all experiments were run side by side. ± gives the spread as reported.

C/C(N)=N/C(=N\S(=O)(=O)c1ccc(C(F)(F)F)cc1)N1C[C@H](c2ccccc2)C(c2ccc(Cl)cc2)=N1 — Cmax (Sprague-Dawley rat, male, plasma; oral, 30 mg/kg): 3120 ng/mL
COc1ccc([C@@H]2CC(=O)c3c(O)cc(O[C@@H]4O[C@H](CO)[C@@H](O)[C@H](O)[C@H]4O[C@@H]4O[C@@H](C)[C@H](O)[C@@H](O)[C@H]4O)cc3O2)cc1O — Cmax (Sprague-Dawley rat, male, lean, plasma; oral, 100 mg/kg): 5.09 ± 4.21 ng/mL
CCCC[C@H](OC(C)=O)c1ccccc1C(=O)O — Cmax (Sprague-Dawley rats, both sexes, whole blood; intravenous, 5 mg/kg single dose): 16600 ± 2380 ng/mL
OC1(C(F)(F)F)CCN(c2nc(Nc3ccnc(C(F)(F)F)c3)nc(-c3cccc(C(F)(F)F)n3)n2)C1 (stereo not drawn) — Cmax (Sprague-Dawley rat, both sexes, plasma; oral gavage, 5 mg/kg, day 14): 859 ± 138 ng/mL
C=C(NC(=O)c1csc(-c2nc3c(cc2O)-c2nc(cs2)C(=O)NC(C(C)O)C(=O)NC(=C(C)OC)c2nc(cs2)C(=O)NC2c4nc(cs4)C(=O)NC(COC(=O)c4c5c6c(cccc6n4O)COC(=O)C(OC4CC(C)(O)C(N(C)C)C(C)O4)C2OC5)c2nc-3cs2)n1)C(N)=O (stereo not drawn) — Cmax (Sprague-Dawley rat, both sexes, plasma; intravenous infusion, 6 mg/kg single dose): 4390 ng/mL
CC[C@H](C)[C@H](NC(=O)[C@H](Cc1ccc(O)cc1)NC(=O)[C@@H](NC(=O)[C@H](CCCNC(=N)N)NC(=O)[C@@H](N)CC(=O)O)C(C)C)C(=O)N[C@@H](Cc1c[nH]cn1)C(=O)N1CCC[C@H]1C(=O)O — Cmax (LC-MS/MS; Sprague-Dawley rats, plasma; subcutaneous, 10 mg/kg/day, day 27): 257 ng/mL
CN1CCC[C@@H]1C(=O)N[C@@H](Cc1ccc(-c2ccccc2)cc1)B(O)O — Cmax (Sprague-Dawley rat, male, plasma; intravenous, 1 mg/kg): 2670 nM
O=C(O)/C=C\c1cc2ccoc2cc1O[C@@H]1O[C@H](CO)[C@@H](O)[C@H](O)[C@H]1O — Cmax (rat, plasma; oral, 500 mg/kg Eu + 217 mg/kg Pc extract, dosed as combined Eu and Pc extracts): 229 ± 110 ng/mL
Cc1c(-c2ccc(N3CCc4cccc(C(=O)Nc5nc6ccccc6s5)c4C3)nc2C(=O)O)cnn1CC12CC3CC(CC(C3)C1)C2 — Cmax (anesthetized male Sprague-Dawley rats, plasma; intravenous infusion, 10 mg/kg, 30 min infusion): 57200 ± 6500 ng/mL

Repeated from above:
CC[C@H](C)[C@H](NC(=O)[C@H](Cc1ccc(O)cc1)NC(=O)[C@@H](NC(=O)[C@H](CCCNC(=N)N)NC(=O)[C@@H](N)CC(=O)O)C(C)C)C(=O)N[C@@H](Cc1c[nH]cn1)C(=O)N1CCC[C@H]1C(=O)O — Cmax (LC-MS/MS; Sprague-Dawley rats, plasma; subcutaneous, 10 mg/kg/day, day 27): 257 ng/mL
